Assay results collected from several papers.
Protocols differ between the studies behind these lines. Several values in a cell are separate wells, animals, samples, runs or records. ± gives the spread as reported.

`CN1CCC[C@]1(C)/C=C/S(=O)(=O)NC(=O)Nc1c2c(cc3c1CCC3O)CCC2` (some centres unmarked) — result for “AUC(0-tau) accumulation ratio”: 1.7 (human, plasma; oral, 100 mg twice daily of parent drug, metabolite of dosed drug; baseline: day 14 over day 1).
`CC(C)Cc1ccc(C(C)C(=O)N[C@@H](CCCCNC(=O)CCOCCOCCOCCOCCOCCOCCNC(=O)CN2CCN(CC(=O)[O-])CCN(CC(=O)[O-])CCN(CC(=O)[O-])CC2)C(=O)Nc2cccc3c(C(=O)NCC(=O)N4CC(F)(F)C[C@H]4C#N)ccnc23)cc1.[177Lu+3]` (some centres unmarked) has a tissue uptake of 19.7 ± 2.35 %ID/g (mouse, U-87 MG tumour xenograft, lung; 4 h).
For `CC(C)(O)c1ncc([S@](N)(=O)=NC(=O)Nc2c3c(cc4c2CCC4)CCC3)s1`, “subjects with TEAEs” read 35% (refers to: general, administration-site conditions; healthy human; oral, dose not given, 14 days, all active multiple doses pooled).
The AUCinf of `O=C(O)[C@H]1O[C@@H](N(Cc2ccc(C(F)(F)F)nc2)c2ccc(Cc3c[nH]c4ncc(Cl)cc34)cn2)[C@H](O)[C@@H](O)[C@@H]1O` is reported as 96100 ng·h/mL (human, male, plasma; oral, 400 mg of [14C]-pexidartinib single dose, as metabolite).
With `CCCCN1C(=O)c2cccc3c(NCCCCCCCCN4CCOCC4)ccc(c23)C1=O` the absorption maximum was 428 nm (dioxane).
For `Cc1nc(N)nc2c1C(=O)N[C@@H](c1ccc(F)cc1-c1cccc(OCC[18F])n1)C2`, the uptake was 0.37 ± 0.05 %ID (ex vivo biodistribution; C57BL/6 mice, spleen; intravenous, 30 min).
`CCC1CNC(CC)CN(C(C(=O)[O-])c2ccc(C(=O)[O-])cc2)C(CC)CN(CC(=O)[O-])C(CC)CN1.[Mn+2]` (centres unmarked) has a Mn content of 1.16 ± 0.23 µg/g (ICP-MS; BALB/c mouse, spleen; intravenous, 0.05 mmol/kg, 5 min, without anaesthesia).
`COc1cccc(OC)c1-c1cc(C(=O)NC2(C(=O)O)C3CC4CC(C3)CC2C4)nn1-c1ccc(C(=O)N(C)CCCN(C)C(=O)[C@H](CCCCNC(=O)[C@H](CC(C)C)NC(=O)C2OC2C(=O)O)NC(=O)CN2CCN(CC(=O)[O-])CCN(CC(=O)[O-])CCN(CC(=O)[O-])CC2)cc1C(C)C.[177Lu+3]` (mixture of isomers) gave a tissue uptake of 0.94 %ID/g (mouse, HT-29 xenograft, liver; 4 h post injection).
For `CC(=O)N([O-])CCCCCNC(=O)CCC(=O)N([O-])CCCCCNC(=O)CCC(=O)N([O-])CCCCCN.[89Zr+4]`, the tracer uptake was 0.23 %ID/g (mouse, spleen; 1 h).
`CC(C)C[C@H](NC(=O)[C@H](CCCNC(=N)N)NC(=O)[C@H](Cc1ccccc1)NC(=O)[C@H](Cc1ccccc1)NC(=O)[C@@H](NC(=O)[C@H](CO)NC(=O)[C@H](CO)NC(=O)[C@H](CC(=O)O)NC(=O)[C@H](CO)NC(=O)[C@H](CO)NC(=O)[C@H](CC(=O)O)NC(=O)[C@H](CO)NC(=O)[C@H](CO)NC(=O)[C@H](CC(=O)O)NC(=O)[C@H](CO)NC(=O)[C@H](CO)NC(=O)[C@H](CC(=O)O)NC(=O)[C@H](CO)NC(=O)[C@H](CO)NC(=O)[C@H](CC(=O)O)NC(=O)[C@H](CO)NC(=O)[C@H](CO)NC(=O)[C@H](CC(=O)O)NC(=O)[C@H](CO)NC(=O)[C@H](CO)NC(=O)[C@H](CC(=O)O)NC(=O)[C@H](CO)NC(=O)[C@H](CO)NC(=O)[C@@H](N)CC(=O)O)[C@@H](C)O)C(=O)N[C@@H](Cc1ccccc1)C(=O)N[C@@H](CC(N)=O)C(=O)N[C@@H](CCCNC(=N)N)C(=O)N[C@@H](C)C(=O)N[C@@H](CCCCN)C(=O)N[C@@H](CCCNC(=N)N)C(=O)N[C@@H](Cc1c[nH]cn1)C(=O)N[C@@H](Cc1c[nH]cn1)C(=O)NCC(=O)N[C@@H](Cc1ccc(O)cc1)C(=O)N[C@@H](CCCCN)C(=O)N[C@@H](CCCNC(=N)N)C(=O)N[C@@H](CCCCN)C(=O)N[C@@H](Cc1ccccc1)C(=O)N[C@@H](Cc1c[nH]cn1)C(=O)O` gave a peptide concentration of 0.899 mg/mL (HPLC-UV; human saliva; 4 h, 37 °C, with: initial 1 mg/mL).
`CN1CCC[C@]1(C)/C=C/S(=O)(=O)NC(=O)Nc1c2c(cc3c1CC(O)C3)CCC2` (some centres unmarked) has an AUC(0-tau) of 65700 ng·h/mL (human, plasma; oral, 100 mg twice daily of parent drug, day 1, metabolite of dosed drug).
With `COc1ccc(Nc2nc(Nc3ccc(OCCOCC[18F])cc3)ncc2Br)cc1` the uptake ratio was 2.86 (ICR mice, S180 tumour; intravenous, 370 kBq, 5 min; baseline: tumour over muscle).
With `CCCCN1C(=O)c2cccc3c(NCCN4CCOCC4)ccc(c23)C1=O` the absorption maximum was 422 nm (dioxane).
`[2H]C1([2H])CC[C@@H](C[C@@H](C#N)NC(=O)[C@@H]2[C@@H]3[C@H](CN2C(=O)[C@@H](NC(=O)C(F)(F)F)C(C)(C)C)C3(C)C)C(=O)N1` gave an intrinsic clearance of 39 µL/min/mg (human liver microsomes; microsomes 0.5 mg/mL).
With `CCCCN1C(=O)c2cccc3c(NCCCCCCCCCCN4CCOCC4)ccc(c23)C1=O` the absorption maximum was 428 nm (dioxane).
For `CSCC[C@H](N)C(=O)N[C@@H](CO)C(=O)N[C@H](C(=O)N[C@@H](C)C(=O)NCC(=O)N[C@@H](CC(C)C)C(=O)N[C@@H](CCCCN)C(=O)N[C@@H](CCCCN)C(=O)N[C@@H](CCC(N)=O)C(=O)N[C@@H](Cc1c[nH]c2ccccc12)C(=O)N[C@@H](Cc1ccc(O)cc1)C(=O)N[C@@H](CCCCN)C(=O)N[C@@H](C)C(=O)N[C@@H](CO)C(=O)N[C@@H](CCC(N)=O)C(=O)N[C@@H](CC(C)C)C(=O)N[C@H](C(=O)N[C@@H](CO)C(=O)N[C@@H](CCC(=O)O)C(=O)N[C@@H](CCCCN)C(=O)N[C@H](C(=O)NCC(=O)NCC(=O)N[C@@H](C)C(N)=O)C(C)C)C(C)C)C(C)C`, the TFE midpoint was 2.73 ± 0.05 M (circular dichroism; aqueous TFE; 50 µM, pH 7.4, 20 °C).
The clearance of `N=C(N)NCCC[C@@H]1NC(=O)[C@H](CO)NC(=O)[C@@H](NC(=O)[C@H](CO)NC(=O)[C@H](CO)NC(=O)[C@H](Cc2c[nH]c3ccccc23)NC(=O)CNC(=O)[C@H](CO)NC(=O)[C@@H](N)Cc2c[nH]c3ccccc23)CSSC[C@@H](C(=O)NCC(=O)O)NC(=O)[C@H](CO)NC1=O` is reported as 850 L/h (patients, plasma; intravenous, 10 mg/kg, thrice weekly, median).
For `O=Cc1ccc2cccc(O)c2n1`, “degradation rate constant” read 0 h⁻¹ (chemical stability, HPLC-MS; borate buffered saline; pH 10.2, no N-acetyl-lysine).
The intact compound of `CN(O)C(=O)CCC(=O)NCCCN(CCCCN(CCCNC(=O)CCC(=O)N(C)O)C(=O)CCC(=O)N(C)O)C(=O)CCC(=O)N(C)O.[89Zr]` is reported as 98.5 ± 0.7% (PBS; 1 days, pH 7, 37 °C).
For `C=C(NC(=O)c1csc(-c2nc3c(cc2O)-c2nc(cs2)C(=O)NC(C(C)O)C(=O)NC(=C(C)OC)c2nc(cs2)C(=O)NC2c4nc(cs4)C(=O)NC(COC(=O)c4c5c6c(cccc6n4O)COC(=O)C(OC4CC(C)(O)C(N(C)C)C(C)O4)C2OC5)c2nc-3cs2)n1)C(N)=O` (centres unmarked), the AUC(0-t) was 1.26 µM·h (ICR mice, Streptococcus pneumoniae ATCC 49169 infected, immunocompromised, blood; intravenous, 16 mg/kg once daily).
With `CC(C)Cn1cc(Cc2cccc(OC(C)(C)C(=O)O)c2)c2ccc(C(=O)N[C@@H](C)c3cc(F)cc(C(C)(C)C)c3)cc21` the half-life was greater than 1 h (metabolic stability; mouse, liver microsomes).
`O=C(Nc1cnccc1-c1ccc([18F])cc1)c1ccnc(NC(=O)C2CC2)c1` gave a median SUV of 0.38 (PET imaging; FVB/NJ mice, both sexes, brain; intravenous, 10 min post-injection).
`COc1cccc(OC)c1-c1cc(C(=O)NC2(C(=O)O)C3CC4CC(C3)CC2C4)nn1-c1ccc(C(=O)N(C)CCCN(C)CCCN(C)C(=O)[C@H](CCCCNC(=O)[C@H](CC(C)C)NC(=O)C2OC2C(=O)O)NC(=O)CN2CCN(CC(=O)[O-])CCN(CC(=O)[O-])CCN(CC(=O)[O-])CC2)cc1C(C)C.[177Lu+3]` (mixture of isomers) has a tissue uptake of 3.1 %ID/g (mouse, HT-29 xenograft, kidney; 168 h post injection).
For `OCC1OC(n2cnc3c(NCc4ccc(Br)s4)ncnc32)C(O)C1O` (centres unmarked), the half-life was 8.5 h (beagle dog, blood; intravenous, 0.5 mg/kg).
Under “radioactivity recovery per interval”, `Cc1cc(-c2ccc(C(=O)[C@@H]3CCCC[C@H]3C(=O)Nc3cnn4c3C(=O)NCC4)cc2)[nH]n1` is recorded as < 0.01% and 0.01% (human, urine; oral, 200 mg, 192-216 h; baseline: dose).
`C=CC(=O)Nc1cc(Nc2nccc(-c3cn(C)c4ccccc34)n2)c(OC)cc1N(C)CCNC` has a recovery of 52.2% (storage stability; human plasma; 30 d, on ice, MQC level).
The tracer uptake of `CC(C(=O)O)n1nc(Cn2cc3cc(OCC[18F])c(Cl)cc3n2)c2ccccc2c1=O` (racemic) is reported as 0.04 %ID/g (rat, brain; 5 min).
`CSCc1cn(-c2cccc(C(=O)N3CCC(c4nc(-c5ccccc5)n[nH]4)CC3)c2)nn1`: “intrinsic clearance, scaled” 261 L/h/kg (CD-1 mouse liver microsomes; pH 7.4, with: NADPH).
`CC[C@H](C)[C@H](NC(=O)[C@H](CCCCN)NC(=O)[C@H](CCC(=O)O)NC(=O)[C@H](CCCCN)NC(=O)[C@H](CC(C)C)NC(=O)[C@H](C)NC(=O)[C@H](C)NC(=O)[C@@H](NC(=O)[C@H](CCCCN)NC(=O)[C@@H]1CSCc2cccc(c2)CSC[C@H](NC(=O)[C@@H](NC(=O)[C@H](CCCCN)NC(C)=O)[C@@H](C)CC)C(=O)N[C@@H](C)C(=O)N[C@@H](CC(C)C)C(=O)N[C@@H](CCCCN)C(=O)N1)[C@@H](C)CC)C(=O)N[C@@H](C)C(=O)N[C@@H](C)C(=O)N[C@@H](CC(C)C)C(=O)N[C@@H](CCCCN)C(=O)N[C@@H](CCC(=O)O)C(=O)NCC(=O)N[C@@H](Cc1c[nH]c2ccccc12)C(N)=O` has a melting temperature of 28 °C (circular dichroism thermal melting; PBS; pH 7.4, single peptide 50 µM total).
`Cc1ccc(OCC(=O)N(Cc2cccs2)c2ccn[nH]2)cc1` has a remaining compound of 94.2% (pooled human liver microsomes; 10 µM, 60 min, without NADPH; baseline: time 0).
The serum GOT of `O=[N][Fe]1([N]=O)[S](CCO)[Fe]([N]=O)([N]=O)[S]1CCO` is reported as 76 ± 57.6 U/dL (aged C57BL/6JNarl mice on Western diet; po, 2.65 mg/kg daily, 16 weeks).
With `Cc1c(Cc2cc(Cl)cc(OC(C)C(=O)O)c2)c2ccc(C(=O)NC(C)c3ccc(C(C)(C)C)cc3)cc2n1C(C)C` (centres unmarked) the half-life was 0.762 h (metabolic stability; mouse, liver microsomes).
`CCCC[C@H](NC(=O)CNC(=O)CNC(=O)[C@H](CCCCNC(=O)[C@H](CC(=O)O)NC(=O)C(C)c1ccc(CC(C)C)cc1)NC(=O)CN1CCN(CC(=O)O)CCN(CC(=O)O)CCN(CC(=O)O)CC1)C(=O)N[C@H]1CC(=O)NCCCC[C@@H](C(N)=O)NC(=O)[C@H](Cc2c[nH]c3ccccc23)NC(=O)[C@H](CCCNC(=N)N)NC(=O)[C@@H](Cc2ccccc2)NC(=O)[C@H](Cc2c[nH]cn2)NC1=O` (some centres unmarked) [lutetium-177 labelled]: “tumour to blood uptake ratio” 1.49 (C57 mice with B16/F10 melanoma; 2 h, with: NDP blockade).
`CCC[C@H]1CC[C@H](c2ccc(NC(=S)NC[C@@H]3[C@@H](O)[C@@H](O)[C@H]4[C@H](O)CCCN43)cc2)CC1` gave a CRE of 0.33 ± 0.05 mg/dL (NOD-SCID mouse, serum; ip, 30 mg/kg).
`CCCCN1C(=O)c2cccc3c(NCCCCN4CCOCC4)ccc(c23)C1=O` gave a fluorescence lifetime of 9 ns (chloroform).
`CCCCCCCC/C=C/CCCCCCCC(=O)[O][Pt-2]1([OH])([Cl])([NH+]=C(CC)N(C)CCNc2c3ccccc3[nH+]c3ccccc23)[NH2+]CCC[NH2+]1.O=[N+]([O-])[O-].O=[N+]([O-])[O-]` gave a logD of 0.98 ± 0.09 (shake-flask; 1-octanol/0.9% NaCl; pH 5).
For `O=C(Nc1cnccc1-c1ccc([18F])nc1)c1ccnc(NC(=O)C2CC2)c1`, the SUV was 8.4 (FVB/NJ mouse, both sexes, liver; intravenous, 50 min).
The absorption maximum of `CCCCN1C(=O)c2cccc3c(NCCCN4CCOCC4)ccc(c23)C1=O` is reported as 435 nm (chloroform).

Repeated from above:
`Cc1ccc(OCC(=O)N(Cc2cccs2)c2ccn[nH]2)cc1` has a remaining compound of 94.2% (pooled human liver microsomes; 10 µM, 60 min, without NADPH; baseline: time 0).
The AUCinf of `O=C(O)[C@H]1O[C@@H](N(Cc2ccc(C(F)(F)F)nc2)c2ccc(Cc3c[nH]c4ncc(Cl)cc34)cn2)[C@H](O)[C@@H](O)[C@@H]1O` is reported as 96100 ng·h/mL (human, male, plasma; oral, 400 mg of [14C]-pexidartinib single dose, as metabolite).
With `Cc1c(Cc2cc(Cl)cc(OC(C)C(=O)O)c2)c2ccc(C(=O)NC(C)c3ccc(C(C)(C)C)cc3)cc2n1C(C)C` (centres unmarked) the half-life was 0.762 h (metabolic stability; mouse, liver microsomes).
